Measured values of several laboratories.
Values joined by “and” are separate records of one study, mostly repeats; a detail may differ. Numbers after ± are the reported error. Values after ≈ are worked out from the molar mass of the structure shown.

CCCCNC(CCCC)CSS(=O)(=O)O (stereo not shown)  worm burden reduction (Schistosoma mansoni; infected mice; 100 mg/kg x4, dosed from day 11, perfusion day 25; baseline: vehicle): -14%
Cc1cc(Cl)cc(S(C)=NC#N)c1NC(=O)c1cc(Br)nn1-c1ncccc1Cl (stereo not shown)  larval viability (Spodoptera litura; Brassica oleracea field plot; 50 ppm, 72 h, 10% wettable powder): 22.9% and 32% and 14.3%
CC(C)(C)NCC(SS(=O)(=O)O)c1ccccc1 (stereo not shown)  spleen weight (Schistosoma mansoni; Swiss Webster mouse, infected; oral, 600 mg/kg single dose, 44 days p.i., dosed day 15 p.i.): 0.23 g and 0.25 g and 0.15 g and 0.46 g
C=C[C@]1(C)C[C@@H](OC(=O)CSc2ccc(NC(=O)c3ccco3)cc2)[C@]2(C)[C@H](C)CC[C@]3(CCC(=O)[C@H]32)[C@@H](C)[C@@H]1O  Emax (Mycoplasma gallisepticum; sigmoid Emax model, Cmax/MIC; infected chickens): -1.09 log10 CFU/mL
[2H]C([2H])([2H])C1(C([2H])([2H])[2H])NC(=O)N(c2ccc(F)c(C(C)(F)F)c2)C1=O  worm burden reduction (Schistosoma mansoni; mouse; oral, 25 mg/kg single dose, dosed one day before infection): 59%
CCCOC(=O)N1c2cc(CNC)ccc2[C@H](NC(=O)C(=O)Nc2ccc(Cl)c(F)c2)[C@H]1CNC(=N)N  IC80 (Human immunodeficiency virus 1; viral infection, pseudovirus neutralization; TZM-bl, 191084 B7-19; clade A transmitted/founder): 6620 nM
C#CCN1CCC(N2C(c3ccc(OC)cc3)=Nc3ccc(F)cc3C2c2ccccc2)CC1 (stereo not shown)  growth inhibition (Naegleria fowleri; ATCC 30215; concentration not given): inactive
O=C(NCC(O)(Cn1cncn1)c1ccc(F)cc1F)[c-]1cccc1.[Cl-].[Co+3].c1cc[cH-]c1 (racemic)  inhibition (Brugia pahangi; motility, Worminator; adult female; 50 µM, 0 d): 0%
FC(F)(F)c1cccc(CNc2nc(NC3CCN(Cc4ccccc4)CC3)c3nc[nH]c3n2)c1  log2 fold change (Cryptococcus neoformans; RNA-seq, item: IPK1 (CNAG_01294) mRNA; 48 µg/mL, 3 h; baseline: untreated wild type): -0.197
C#CCNC(=O)C1(O/N=C(\C(=O)N[C@@H]2C(=O)N(OS(=O)(=O)O)C2(C)C)c2csc(N)n2)CC1  MIC (Proteus mirabilis; agar dilution; ATCC 49565 susceptible): 0.25 µg/mL (≈ 0.499 µM)
Cc1c(CC(=O)N[C@@H](Cc2ccccc2)C(=O)N(C)c2ccc(Cl)cc2)c2ccccc2n1C(C)C  EC50 (HIV-1; infectivity of progeny virus; HEK293FT, NL4-3): 740 ± 70 nM
CC(=O)O[C@@H]1[C@@H](OC(C)=O)[C@H](Sc2sc(C(=O)c3ccc(Cl)cc3)c(N)c2-c2nc3ccccc3s2)OC[C@H]1OC(C)=O  viral titre reduction (hepatitis A virus; plaque reduction; HM 175; non-toxic concentration): 10%
COC1C=COC2(C)Oc3c(C)c(O)c4c(c3C2=O)C2=NC3(CCN(CC(C)C)CC3)NC2=C(NC(=O)C(C)=CC=CC(C)C(O)C(C)C(O)C(C)C(OC(=O)Nc2cccnn2)C1C)C4=O (stereo not shown)  IC50 (Mycobacteroides abscessus; bacterial growth; subsp. abscessus Bamboo): 24 nM
CCCCC(CSS(=O)(=O)O)NCC(C)C (stereo not shown)  worm burden reduction (Schistosoma mansoni; infected mice; 100 mg/kg x4, dosed from day 11, perfusion day 25; baseline: vehicle): -12%
CC(=O)OC[C@H]1O[C@@H](Sc2sc(C(=O)c3ccc(C)cc3)c(N)c2-c2nc3ccccc3s2)[C@H](OC(C)=O)[C@@H](OC(C)=O)[C@@H]1OC(C)=O  viral titre reduction (hepatitis A virus; plaque reduction; HM 175; non-toxic concentration): 10%
Cc1[nH]c2ccccc2c1CC(=O)N[C@@H](Cc1ccccc1)C(=O)N(C)c1ccccc1  EC50 (HIV-1; viral replication; NL4-3 with subtype C gag/pol): 430 ± 80 nM
Cc1c(CN(C)C(=O)/C=C/c2cnc3c(c2)CC(N)C(=O)N3)oc2ccccc12 (stereo not shown)  MIC (Escherichia coli; broth microdilution; AR-0543): 8 µg/mL (≈ 20.5 µM)
CC(C)NCC(SS(=O)(=O)O)c1ccccc1 (stereo not shown)  worm burden reduction (Schistosoma mansoni; infected mice; 100 mg/kg x4, dosed from day 11, perfusion day 25; baseline: vehicle): 46%
CCn1c(C)c(CC(=O)N[C@@H](Cc2ccccc2)C(=O)N(C)c2ccccc2)c2ccccc21  EC50 (HIV-1; infectivity of progeny virus; HEK293FT, NL4-3): 450 ± 60 nM
CCCCCCCCCC(=O)N[C@@H](Cc1c[nH]c2ccccc12)C(=O)N[C@H](CC(N)=O)C(=O)N[C@@H](CC(=O)O)C(=O)N[C@@H]1C(=O)NCC(=O)N[C@@H](CCCNC(=O)OC2/C=C/CCCCC2)C(=O)N[C@@H](CC(=O)O)C(=O)N[C@H](C)C(=O)N[C@@H](CC(=O)O)C(=O)NCC(=O)N[C@H](CO)C(=O)N[C@@H]([C@H](C)CC(=O)O)C(=O)N[C@@H](CC(=O)c2ccccc2N)C(=O)O[C@@H]1C (stereo partly shown)  peak heat flow (Staphylococcus aureus; isothermal microcalorimetry; MRSA; 2.5 µg/mL, 24 h, 37 °C): 0 µW
CN(C(=O)[C@H](Cc1ccccc1)NC(=O)Cc1c[nH]c2ccc(O)cc12)c1ccc(Cl)cc1  EC50 (HIV-1; viral replication; NL4-3 with subtype C gag/pol): 41 ± 10 nM
CC(=O)O[C@@H]1[C@@H](OC(C)=O)[C@H](Sc2sc(C(=O)c3ccc(Br)cc3)c(N)c2-c2nc3ccccc3s2)OC[C@H]1OC(C)=O  viral reduction (hepatitis A virus; plaque reduction; HM 175; non-toxic dose NG, mean over three titres): 23.3%
OC(Cn1cncn1)(Cn1cc(-[c-]2cccc2)nn1)c1ccc(F)cc1F.[Cl-].[Co+3].c1cc[cH-]c1 (racemic)  inhibition (Brugia pahangi; motility, Worminator; adult female; 50 µM, 6 d): 19%
CC1(C)[C@H](NC(=O)/C(=N\OCCN)c2csc(N)n2)C(=O)N1OS(=O)(=O)O  MIC (Proteus mirabilis; agar dilution; ATCC 49565, susceptible): 0.25 µg/mL (≈ 0.592 µM)
C=CS(=O)(=O)c1ccccc1  cysticidal efficacy (Taenia solium; trypan blue uptake; viable cysts in vitro; 50 µg/mL): 100%
Nc1c(C(=O)c2ccc(Br)cc2)sc(S)c1-c1nc2ccccc2s1  viral reduction (hepatitis A virus; plaque reduction; HM 175; non-toxic dose NG, mean over three titres): 0%
C=C(NC(=O)c1csc(-c2nc3c(cc2O)-c2nc(cs2)C(=O)NC(C(C)O)C(=O)NC(=C(C)OC)c2nc(cs2)C(=O)NC2c4nc(cs4)C(=O)NC(COC(=O)c4c5c6c(cccc6n4O)COC(=O)C(OC4CC(C)(O)C(N(C)C)C(C)O4)C2OC5)c2nc-3cs2)n1)C(N)=O (stereo not shown)  lung bacterial load (Streptococcus pneumoniae; -25, immunocompromised mice, lung infection; 32 mg/kg/day, twice daily, 24 h post-dose): 3.89 log CFU/g
CC1=C(Cn2cc(CN3CCC(F)(F)CC3)nn2)C(=O)c2ccccc2C1=O  killing (Schistosoma mansoni; adult worms; 25 µM, 48 h): 44.6%
C[C@@H]1C(=O)O[C@@H](C)/C=C/C=C\[C@@H](C)[C@@H]2C=C[C@@H]3C[C@@]4(C)O[C@H]4[C@@H](C)[C@H]3[C@@H]2C(=O)C(Cl)(Cl)C1=O  MIC (Staphylococcus aureus; MSSA clinical isolate; resistant: PEN,CLI,ERY): 0.05 µg/mL (≈ 0.101 µM)
CC(=O)OC[C@H]1O[C@@H](Sc2sc(C(=O)c3ccc(Cl)cc3)c(N)c2-c2nc3ccccc3s2)[C@H](OC(C)=O)[C@@H](OC(C)=O)[C@H]1OC(C)=O  viral titre reduction (hepatitis A virus; plaque reduction; HM 175; non-toxic concentration): 10%
Cc1ccc(N(C)C(=O)[C@H](Cc2ccccc2)NC(=O)Cc2c[nH]c3ccc(O)cc23)cc1  EC50 (HIV-1; infectivity of progeny virus; HEK293FT, NL4-3): 380 ± 90 nM
Cc1ccc(C(=O)c2sc(S)c(-c3nc4ccccc4s3)c2N)cc1  viral reduction (hepatitis A virus; plaque reduction; HM 175; non-toxic dose NG, mean over three titres): 20%
COC(=O)C1=CO[C@@H](C)[C@@H]2Cn3ccc4c5ccccc5nc-4c3C[C@H]12  IC50 (Plasmodium falciparum; growth; 3D7; 96 h, added: 200 µM IPP): 249 ± 102 nM
CC(=O)OC[C@H]1O[C@@H](Sc2sc(C(=O)c3ccc(Br)cc3)c(N)c2-c2nc3ccccc3s2)[C@H](OC(C)=O)[C@@H](OC(C)=O)[C@H]1OC(C)=O  viral titre reduction (hepatitis A virus; plaque reduction; HM 175; non-toxic concentration): 20%
Cc1cc(C(=O)Nc2nc3cccc(C)c3n2[C@H]2CCCCN(C(=O)/C=C/CN(C)C)C2)ccn1  proliferation (Trypanosoma brucei brucei; Lister 427; 50 µM, 48 h, kill kinetics): 1.76% and 2.92% and 2.84% and 0.909% and 0.985% and 3.07%
Nc1c(C(=O)c2ccc(Cl)cc2)sc(S)c1-c1nc2ccccc2s1  viral titre reduction (hepatitis A virus; plaque reduction; HM 175; non-toxic concentration): 0%
CC1=C(Cn2cc(CN3CCC(=O)CC3)nn2)C(=O)c2ccccc2C1=O  killing (Schistosoma mansoni; adult worms; 10 µM, 72 h): 47.2%

Repeated from above:
C=C(NC(=O)c1csc(-c2nc3c(cc2O)-c2nc(cs2)C(=O)NC(C(C)O)C(=O)NC(=C(C)OC)c2nc(cs2)C(=O)NC2c4nc(cs4)C(=O)NC(COC(=O)c4c5c6c(cccc6n4O)COC(=O)C(OC4CC(C)(O)C(N(C)C)C(C)O4)C2OC5)c2nc-3cs2)n1)C(N)=O (stereo not shown)  lung bacterial load (Streptococcus pneumoniae; -25, immunocompromised mice, lung infection; 32 mg/kg/day, twice daily, 24 h post-dose): 3.89 log CFU/g
CC1=C(Cn2cc(CN3CCC(F)(F)CC3)nn2)C(=O)c2ccccc2C1=O  killing (Schistosoma mansoni; adult worms; 25 µM, 48 h): 44.6%
C[C@@H]1C(=O)O[C@@H](C)/C=C/C=C\[C@@H](C)[C@@H]2C=C[C@@H]3C[C@@]4(C)O[C@H]4[C@@H](C)[C@H]3[C@@H]2C(=O)C(Cl)(Cl)C1=O  MIC (Staphylococcus aureus; MSSA clinical isolate; resistant: PEN,CLI,ERY): 0.05 µg/mL (≈ 0.101 µM)
CC(=O)OC[C@H]1O[C@@H](Sc2sc(C(=O)c3ccc(Cl)cc3)c(N)c2-c2nc3ccccc3s2)[C@H](OC(C)=O)[C@@H](OC(C)=O)[C@H]1OC(C)=O  viral titre reduction (hepatitis A virus; plaque reduction; HM 175; non-toxic concentration): 10%
Cc1ccc(N(C)C(=O)[C@H](Cc2ccccc2)NC(=O)Cc2c[nH]c3ccc(O)cc23)cc1  EC50 (HIV-1; infectivity of progeny virus; HEK293FT, NL4-3): 380 ± 90 nM
Cc1ccc(C(=O)c2sc(S)c(-c3nc4ccccc4s3)c2N)cc1  viral reduction (hepatitis A virus; plaque reduction; HM 175; non-toxic dose NG, mean over three titres): 20%
